Published values gathered from unrelated publications.
Every numbered part comes from another study and shows a few of its results, in no order.

Set 1
Target: Dual specificity tyrosine-phosphorylation-regulated kinase 1B (DYRK1B, Homo sapiens, UniProt Q9Y463)
Effect on: enzyme activity
Mode: inhibitor
Method: radiometric
Concentration: 0.5 µM
Quantity: remaining activity
CC(=O)c1ccc(N2CCOCC2)cc1O: 99.9%
Oc1ccc(Nc2nc(-c3ccc(Cl)cc3)cs2)cc1: 106%
NC(=O)c1ccc(N(C(N)=O)c2c(F)cccc2F)nc1-c1ccc(F)cc1F: 97.1%
O=C1NC(=O)C(c2c[nH]c3ccccc23)=C1c1c[nH]c2ccccc12: 86.8%
O=C1Cc2c([nH]c3ccc([N+](=O)[O-])cc23)-c2ccccc2N1: 87.5%
Cc1ccc(NC2=CC(=O)c3sc(C)nc3C2=O)cc1: 94.6%
N#CC(=C(N)Sc1ccc(N)cc1)c1ccccc1C(F)(F)F: 99.6%
Nc1nccc(-c2c(-c3ccc(F)cc3)ncn2C2CCNCC2)n1: 100%
COc1cc(Nc2c(C#N)cnc3cc(OCCCN4CCN(C)CC4)c(OC)cc23)c(Cl)cc1Cl: 97%
Cc1cncc2cccc(S(=O)(=O)N3CCCN(C(=O)CN)C[C@@H]3C)c12: 101%
COc1ccc(S(=O)(=O)N(CCO)c2ccccc2CN(C)CC=Cc2ccc(Cl)cc2)cc1: 104%
O=C1NC(=O)c2c1c1c3ccccc3n3c1c1c2c2ccccc2n1[C@H]1CC[C@@H]3O1: 3.15%
CC(C)(C)n1nc(Cc2cccc3ccccc23)c2c(N)ncnc21: 98.6%
CCc1[nH]c(-c2ccc(OC)cc2)nc1-c1ccncc1: 106%
Fc1ccc(-c2nc3n(c2-c2ccncc2)CCS3)cc1: 104%
Nc1nc(Nc2ccc(S(N)(=O)=O)cc2)nn1C(=O)c1c(F)cccc1F: 87.6%
O=S(=O)(NCCNC/C=C/c1ccc(Br)cc1)c1cccc2cnccc12: 95.3%
CC[n+]1c(/C=C/N(C)c2ccccc2)n(-c2ccccc2)c2ccc(-c3nc4ccccc4s3)cc21: 101%
Cc1cc(Nc2nc(-c3ccccc3)nc3ccccc23)n[nH]1: 90.8%
Nc1ncnc2c1cnn2-c1ccccc1: 93%
CCCC(=O)Oc1ccc2[nH]c(C(=O)c3cc4ccccc4[nH]3)cc2c1: 103%
CSc1nc(-c2ccnc(N[C@@H](C)c3ccccc3)c2)c(-c2ccc(F)cc2)[nH]1 (racemic): 84.6%

Set 2
Cell line: HEK-293T-ACE2
Method: Hoechst nuclei count
Concentration: concentration not given
Notes: counter-screen
Relative to: vehicle
Quantity: cell number
CC(C)(C)c1nc(-c2cccc(NS(=O)(=O)c3c(F)cccc3F)c2F)c(-c2ccnc(N)n2)s1: 91.9%
CCN[C@@H]1C[C@H](N)[C@@H](O[C@H]2OC(CN)=CC[C@H]2N)[C@H](O)[C@H]1O[C@H]1OC[C@](C)(O)[C@H](NC)[C@H]1O.CCN[C@@H]1C[C@H](N)[C@@H](O[C@H]2OC(CN)=CC[C@H]2N)[C@H](O)[C@H]1O[C@H]1OC[C@](C)(O)[C@H](NC)[C@H]1O.O=S(=O)(O)O.O=S(=O)(O)O.O=S(=O)(O)O.O=S(=O)(O)O.O=S(=O)(O)O: 97.7%
CO[C@H]1C[C@@H]2CC[C@@H](C)[C@@](O)(O2)C(=O)C(=O)N2CCCC[C@H]2C(=O)O[C@H]([C@H](C)C[C@@H]2CC[C@@H](OC(=O)C(C)(CO)CO)[C@H](OC)C2)CC(=O)[C@H](C)/C=C(\C)[C@@H](O)[C@@H](OC)C(=O)[C@H](C)C[C@H](C)/C=C/C=C/C=C/1C: 104%
COc1cc2nccc(Oc3ccc(NC(=O)C4(C(=O)Nc5ccc(F)cc5)CC4)cc3)c2cc1OC: 87.7%
CN(C)C/C=C/C(=O)Nc1cc2c(Nc3ccc(F)c(Cl)c3)ncnc2cc1O[C@H]1CCOC1.O=C(O)/C=C\C(=O)O.O=C(O)/C=C\C(=O)O: 99.2%
CNC(=O)c1cc(Oc2ccc(NC(=O)Nc3ccc(Cl)c(C(F)(F)F)c3)c(F)c2)ccn1: 96.3%
Cc1[nH]c2ccccc2c1CCNCc1ccc(/C=C/C(=O)NO)cc1: 55.3%
Cc1nc2c([nH]1)-c1ccccc1N(C(=O)c1ccc(NC(=O)c3ccccc3-c3ccccc3)cc1)CC2.Cl: 98.2%
O=C(/C=C/c1cccc(S(=O)(=O)Nc2ccccc2)c1)NO: 70.5%
COC(=O)c1ccc2c(c1)NC(=O)/C2=C(\Nc1ccc(N(C)C(=O)CN2CCN(C)CC2)cc1)c1ccccc1: 101%
CCCCCCCCc1ccc(CCC(N)(CO)CO)cc1.Cl: 81.7%
CO[C@H]1C[C@@H]2CC[C@@H](C)[C@@](O)(O2)C(=O)C(=O)N2CCCC[C@H]2C(=O)O[C@H]([C@H](C)C[C@@H]2CC[C@@H](OCCO)[C@H](OC)C2)CC(=O)[C@H](C)/C=C(\C)[C@@H](O)[C@@H](OC)C(=O)[C@H](C)C[C@H](C)/C=C/C=C/C=C/1C: 106%
CNC(=O)c1cnn(-c2nc(N)c3ncn([C@@H]4O[C@H](CO)[C@@H](O)[C@H]4O)c3n2)c1: 99.6%
Cc1ccc(-n2nccn2)c(C(=O)N2CCN(c3nc4cc(Cl)ccc4o3)CC[C@H]2C)c1: 95.7%
C[C@@H]1CCO[C@H]2Cn3cc(C(=O)NCc4ccc(F)cc4F)c(=O)c([O-])c3C(=O)N12.[Na+]: 101%
CC1(C)CCC(CN2CCN(c3ccc(C(=O)NS(=O)(=O)c4ccc(NCC5CCOCC5)c([N+](=O)[O-])c4)c(Oc4cnc5[nH]ccc5c4)c3)CC2)=C(c2ccc(Cl)cc2)C1: 1.31%

Set 3
Cell line: HEK-293T-ACE2-TMPRSS2
Method: cell count
Concentration: 10 µM
Quantity: viability
CCn1nccc1C(=O)N1CCC(c2cc(Cc3ccccc3)n[nH]2)CC1: 68%
CCN(CC)c1ccc2cc(-c3nc(-c4ccccc4)cs3)c(=O)oc2c1: 108%
Cc1ccc(C2C3=C(COC3=O)Nc3c2c(=O)[nH]c(=O)n3CC(C)C)cc1 (stereo not shown): 75%
CCn1nc(C)c(CNC(=O)C2CCC(=O)N(CCc3ccccn3)C2)c1C (stereo not shown): 112%
O=C(Cn1ncc(Cl)c(Cl)c1=O)c1ccc(Cl)s1: 75%
Cc1c(OC(=O)c2cccs2)ccc2c3c(c(=O)oc12)CCCC3: 69%
CN(C)C1(CNC(=O)c2ccc(C#CC(C)(C)O)o2)CCSC1 (stereo not shown): 70%
CS(=O)(=O)CC(=O)N1CCCC2(CCNC2)C1 (stereo not shown): 85%
CCNC(=O)[C@H]1O[C@@H](n2cnc3c(N)nc(NCCc4ccc(CCC(=O)O)cc4)nc32)[C@H](O)[C@@H]1O: 76%
O=C(c1noc2ccc(S(=O)(=O)NCc3ccc4c(c3)OCO4)cc12)N1CCOCC1: 102%
N#C/C(=C\Nc1cc(C(F)(F)F)cc(C(F)(F)F)c1)S(=O)(=O)Cc1ccc(Cl)cc1: 65%
CCN(CC)CCNC(=O)c1c(C)oc2c1C(=O)c1ccccc1C2=O: 77%
O=C(NCC(F)(F)F)c1ccc(CN(Cc2cc(Cl)cc3c2OCOC3)C2CC2)cc1: 101%
COCCN(Cc1cnn(C)c1)C(=O)c1cc(-c2ccccc2Cl)oc1C: 70%
CCN(CCCNC(=O)c1ccc(Nc2ccnc(-c3ccc(F)cc3)n2)cc1)Cc1ccccc1: 68%
FC(F)(F)c1cc(NC(=S)N/N=C/c2ccccn2)cc(C(F)(F)F)c1: 81%
CCCCCNC(=O)c1ccc(Oc2nccnc2N2CCC(C)CC2)cc1: 104%
CC(=O)Nc1ccc(Cl)c(C(=O)N(C)CCCN2CCCCCC2)c1: 69%
O=C(OCc1cc(Cl)cc2c1OCOC2)c1ccc2c(c1)S(=O)(=O)N=C1CCCCCN12: 70%
Cc1cc2c(cc1O)NC(=O)CC2c1cc(C(C)(C)C)[nH]n1 (stereo not shown): 103%
Cc1cccn2cc(C(=O)N3CCCCC3CCc3ccccn3)nc12 (stereo not shown): 67%
CC(CCc1ccccc1)NC(=O)c1ccc(-c2cc(N3CCOCC3)ncn2)cc1 (stereo not shown): 106%
CN1CCN(Cc2c(O)ccc3cc(-c4ccc(F)cc4)c(=O)oc23)CC1: 66%
CCOc1ccc(CCNc2ncnc3sc(CC)cc23)cc1OCC: 72%
COc1ccc(S(=O)(=O)N2CCC[C@@H]2C(=O)NCCc2csc(C)n2)cc1Cl: 65%

Mixed results
Cell line: HaCaT
Concentration: 100 µM
CC(C)C(Br)C(=O)NC(N)=O (stereo not shown)
viability (18 h): 108%

CCOP(=S)(OCC)Oc1cc(C)nc(C(C)C)n1
viability (18 h): 88.7%

C[C@H]1CC(=O)C[C@@H]2CC[C@H]3[C@@H]4CC[C@H](O)[C@@]4(C)CC[C@@H]3[C@]21C
viability (18 h): 54.9%

COc1ccc(CN(C(=O)[C@@H](N)Cc2c(C)cc(C(N)=O)cc2C)[C@@H](C)c2nc(-c3ccccc3)c[nH]2)cc1C(=O)O
viability (60 h): 139%

A few entries again (set 1):
CC(C)(C)n1nc(Cc2cccc3ccccc23)c2c(N)ncnc21: 98.6%
CCc1[nH]c(-c2ccc(OC)cc2)nc1-c1ccncc1: 106%
Fc1ccc(-c2nc3n(c2-c2ccncc2)CCS3)cc1: 104%
Nc1nc(Nc2ccc(S(N)(=O)=O)cc2)nn1C(=O)c1c(F)cccc1F: 87.6%
